# Results gathered from unrelated publications.
# Parts stem from different laboratories: compare values within a part only.

# Series 1 — method: protein-binding microarray; molecule type: double-stranded DNA, one strand shown; sample: in vitro; tested at: 0.8 µM; setting: whole 60-bp probe, no competitor; reading: higher = stronger binding; shared flanks, not repeated: … GTCTTGATTCGCTTGACGCTGCTG
# Target: Centromere-binding protein 1, full length, N-terminal tag (CBF1, Saccharomyces cerevisiae, UniProt P17106, residues 1-351)
# UniProt P17106, sequence (whole entry, looked up): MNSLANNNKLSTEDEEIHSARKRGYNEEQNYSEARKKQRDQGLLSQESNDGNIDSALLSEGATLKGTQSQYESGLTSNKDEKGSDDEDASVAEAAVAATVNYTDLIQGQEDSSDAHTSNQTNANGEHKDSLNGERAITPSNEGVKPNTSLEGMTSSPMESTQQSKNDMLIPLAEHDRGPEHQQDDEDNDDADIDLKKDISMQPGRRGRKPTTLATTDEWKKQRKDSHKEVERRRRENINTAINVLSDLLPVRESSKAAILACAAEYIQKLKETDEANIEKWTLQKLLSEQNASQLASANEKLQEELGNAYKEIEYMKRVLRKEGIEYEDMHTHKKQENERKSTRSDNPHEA
Sequence,fluorescence intensity [a.u.]
CTAACAAACAAAGGCAACGTGCAGTAAACAACCTTC,637
CTATACACTTCCAAGTACCTGATGTGTGCTTGCTTC,484
CTACAAAGCTGTCTCCACGTGGAAAGTTTATTTTTC,2660
GAATTTTATTTTTGTCACGTAGTGCACTTTGATTAG,894
CTAAAATAAAATTGTCACATCTGATAATTATACTTC,560

# Series 2 — method: protein binding microarray; molecule type: double-stranded DNA, one strand shown; sample: in vitro; tested at: not given; reference: not given; reading: higher = stronger binding
# Target: Histone acetyltransferase KAT6A, winged helix 1, GST fusion (KAT6A, Homo sapiens, UniProt Q92794, residues 1-85)
# Setting: 8-mer, flanks averaged, mean of 2 arrays, mostly near background
# Residues (chain): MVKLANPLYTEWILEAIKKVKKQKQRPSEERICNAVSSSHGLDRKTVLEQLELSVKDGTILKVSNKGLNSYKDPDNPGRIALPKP
Sequence,E-score
ACGGTGGG,0.106
AAAGCAGC,0.00415
TCTCCAAA,-0.314
CACTCATA,-0.146
TATATATA,-0.105
ATTACGGA,0.297
ATCTCGGA,-0.049

# Series 3 — method: protein-binding microarray; molecule type: hairpin DNA; sample: in vitro; tested at: not given; reference: not given; reading: higher = stronger binding
# Target: FOXO3, forkhead domain (mouse, UniProt Q9WVH4, residues 31-263)
# UniProt Q9WVH4, sequence (31-263, looked up): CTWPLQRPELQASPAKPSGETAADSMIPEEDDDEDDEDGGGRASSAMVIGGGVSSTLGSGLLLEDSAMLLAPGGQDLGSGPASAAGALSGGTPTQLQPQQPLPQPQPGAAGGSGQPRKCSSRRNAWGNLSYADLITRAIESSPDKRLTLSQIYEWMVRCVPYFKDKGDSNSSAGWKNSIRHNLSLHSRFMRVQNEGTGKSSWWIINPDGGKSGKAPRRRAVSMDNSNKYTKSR
# Setting: whole hairpin DNA, median over replicate spots
Sequence,median fluorescence [a.u.]
GAGGCCATGCAAACACCGCCTCCTGGCGGTGTTTGCATGGCCTCACACTC,5030
GAGGCCATGCAAAGAACGCCTCCTGGCGTTCTTTGCATGGCCTCACACTC,3920
GAGGCCATGCGAACAACGCCTCCTGGCGTTGTTCGCATGGCCTCACACTC (5mC at 10),4470
GAGGCCATGCAAACAACGCCTCCTGGCGTTGTTTGCATGGCCTCACACTC,5150

# Mixed results
Molecule,target,assay,test system,conditions,scale,endpoint,value
"PhoQ, residues 284 288 289 292 302 303 SMMNNA","PhoP, residues 12 14 15 18 19 HEGLL (Escherichia coli, UniProt P23836)","Sort-seq, item: YFP reporter",E. coli,"PhoQ-PhoP variant library, added: 10 µM Mg2+","reference: high Mg2+ state, higher = stronger signaling",fold induction,4.22

# A few entries again (series 2):
Sequence,E-score
TCTCCAAA,-0.314
ATTACGGA,0.297
